Results of several laboratories.
Numbered parts are unrelated; each lists some results of a single study. Substitutions count along the parent as printed.

Block 1
Target: PABPC1L2, full length, GST fusion (mouse, UniProt A0ABA7IW68)
Method: RNAcompete
Molecule type: RNA
Medium: in vitro
Tested at: 20 nM
Notes: 7-mer, probes averaged, single round
Relative to: mean of 7-mers
Direction: higher = stronger binding
Construct (chain): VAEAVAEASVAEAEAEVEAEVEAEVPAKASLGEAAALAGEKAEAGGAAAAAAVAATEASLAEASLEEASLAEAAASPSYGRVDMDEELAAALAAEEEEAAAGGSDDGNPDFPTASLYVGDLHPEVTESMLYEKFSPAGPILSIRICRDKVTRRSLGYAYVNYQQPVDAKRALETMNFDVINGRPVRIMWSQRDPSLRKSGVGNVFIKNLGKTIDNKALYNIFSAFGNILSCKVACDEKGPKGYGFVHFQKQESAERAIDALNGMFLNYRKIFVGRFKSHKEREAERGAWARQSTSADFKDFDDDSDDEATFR
Oligonucleotide	7-mer Z-score
UAGUGUC	-0.155
AGGCAGU	0.1
UUAAAUU	0.483
GAACAUU	-0.121
AGGUUAA	0.00617
AGCUCAA	-0.0573
GUCCAUG	-0.264
GGACCAG	0.26
GAGGUGU	0.0787
CCCAUCU	-0.465
CGCUUUA	-0.287
CACUGGG	-0.0101
GAGAAGC	-0.0047
UACUGUG	-0.117
CGUGCGG	-0.0174
ACAGACU	-0.115

Block 2
Target: Prothrombin, mature alpha-thrombin (F2, Homo sapiens, UniProt P00734)
Method: aptamer microarray, sandwich
Molecule type: DNA with 2'F-ANA
Medium: in vitro
Tested at: 200 nM
Notes: whole 15-mer aptamer, many near background
Together with: Cy3 exosite-II aptamer, 400 nM
Direction: higher = stronger binding
Oligonucleotide: GGTTGGTGTGGTTGG
Modification	mean fluorescence intensity [a.u.]
2'F-ANA at 4 5 8 9 11 12 14 15	46.7
2'F-ANA at 1 5 6 7 8 11 14	47.2
2'F-ANA at 1 2 4 5 6 8 9 10 13 15	47.6
2'F-ANA at 1 5 7 10 11	47.2
2'F-ANA at 1 2 5 6 10 13	50.5
2'F-ANA at 1 3 6 10 11 14 15	67
2'F-ANA at 1 2 4 8 9 11 13	87.2
2'F-ANA at 1 3 5 6 10 11 15	47
2'F-ANA at 3 5 7 9 13 14	55.9
2'F-ANA at 1 3 5 6 7 8 9 10 13	54.7
2'F-ANA at 1 2 4 5 6 8 9 10 11 13 14 15	65.2
2'F-ANA at 4 8 9 10 12 13 14 15	58.3
2'F-ANA at 5 8 9 12	187
2'F-ANA at 1 2 6 7 9 10 15	50.8
2'F-ANA at 2 3 8 9 11 15	721
2'F-ANA at 1 2 3 4 6 7 10 11 12 14 15	52.8
2'F-ANA at 1 2 3 4 5 6 9 11 12 13 15	60.9
2'F-ANA at 2 3 4 5 6 8 9 10 12	74.1
2'F-ANA at 1 2 6 7 9 10 11 12 15	61.3

Block 3
Target: Eukaryotic initiation factor 4A-I (EIF4A1, Homo sapiens, UniProt P60842, residues 1-406, full length assumed)
Chain of UniProt P60842 (whole entry, looked up): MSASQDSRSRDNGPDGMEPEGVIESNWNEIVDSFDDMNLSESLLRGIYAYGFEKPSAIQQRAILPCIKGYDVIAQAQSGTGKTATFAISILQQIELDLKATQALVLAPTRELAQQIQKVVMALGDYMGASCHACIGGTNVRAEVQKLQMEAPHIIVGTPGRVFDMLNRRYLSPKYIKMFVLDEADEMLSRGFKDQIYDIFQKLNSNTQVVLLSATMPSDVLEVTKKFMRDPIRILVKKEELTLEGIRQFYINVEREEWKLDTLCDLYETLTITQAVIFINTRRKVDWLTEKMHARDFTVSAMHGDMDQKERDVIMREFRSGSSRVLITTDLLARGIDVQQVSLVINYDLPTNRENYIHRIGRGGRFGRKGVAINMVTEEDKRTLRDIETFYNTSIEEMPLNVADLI
Method: RNA Bind-n-Seq
Molecule type: RNA
Medium: in vitro
Tested at: 90 pmol
Notes: 4-mer, random 30-nt RNA, single round
Together with: 3 µM DMDA-PatA, 2 mM ADP, 2 mM phosphate
Relative to: input library
Direction: higher = stronger binding
Oligonucleotide	4-mer enrichment
CGAG	1.23 fold
GCCC	0.626 fold
GAUA	0.913 fold
AAAU	1.06 fold
GAGG	1.38 fold
CUGU	0.719 fold
AAGC	1.09 fold
GGCU	0.63 fold
ACCU	0.575 fold
GCCU	0.545 fold
UAAA	1.08 fold
CAUA	0.765 fold
CCCU	0.652 fold
AGUC	0.701 fold
CUAC	0.571 fold
CAGU	0.861 fold
UCAU	0.715 fold
GGUU	1.03 fold
CAAC	0.734 fold

Block 4
Target: Histone acetyltransferase KAT6A, winged helix 2, GST fusion (KAT6A, Homo sapiens, UniProt Q92794, residues 85-181)
Method: protein binding microarray
Molecule type: double-stranded DNA, one strand shown
Medium: in vitro
Tested at: not given
Notes: 8-mer, flanks averaged, mean of 2 arrays, mostly near background
Relative to: not given
Direction: higher = stronger binding
Construct (chain): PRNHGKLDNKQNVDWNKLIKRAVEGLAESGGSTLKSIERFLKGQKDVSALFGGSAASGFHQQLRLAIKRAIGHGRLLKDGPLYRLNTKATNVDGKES
Oligonucleotide	E-score
CAATGCTG	-0.00308
AGAAGCGA	0.0479
ACGAATAT	0.0707
GATACACC	0.103
ATGGGGCG	0.0418
ACCTTTCT	-0.134
CAGTGGAC	0.0323
TAAAAGCA	0.124
GGTGGCAA	0.0136
ATTCCGTA	-0.0276
CAATACAG	-0.0516
ACATACGC	-0.194
CGAGTTGA	0.0707
CACCCAAC	-0.0859
ATCAACTC	0.0847
TAGCCCCA	-0.0909
AGTTTCAT	0.136
ATTCTCAG	0.0283
CCCAAGCA	0.0298
ACCCGTGG	0.0501
AGCCGTGA	0.145
GGGTTCAA	-0.0955

Block 5
Target: RNA binding protein fox-1 homolog 2, RRM domain, GST-SBP tag (RBFOX2, Homo sapiens, UniProt O43251-10, residues 100-194)
Method: RNA Bind-n-Seq
Molecule type: RNA
Medium: in vitro
Tested at: 365 nM
Notes: natural RNA segment, single round, ends assumed
Relative to: no-protein control
Direction: higher = stronger binding
All sequences stand within: GGGAGUUCUACAGUCCGACGAUC … UGGAAUUCUCGGGUGCCAA
Oligonucleotide	RBNS enrichment (R)
GUCUGGUACUAGAUUUGCUCCUGUCCCACCCCGCAGUCCCCUGAGGAGGGCGAUGUGCGCCCUCUUUCACUUUUUUUCUUCUAGGUCUCCAGGUCCCGGAGGGGAUUUGU	0.427
UGCGGGUGAUCCUCAAGGCCAUGCUGCUUUCUGAGUUGUUCUUGUUGCUUUGUUCAUAAUGUGGUUACAGUCAUAUUACACUGACCCUGAGGGUAUUAUGUAACCCUUCA	0.451
GUCAGACUGUUGCUACAUACAAUUGCCUUUGUAUCUUCGUAUGAAAUAAAAGGUCAUUUGUUCCUGUUGUGUUUAUUUUUCUUGGUUUUAUUGUUAGUUCCUGUUAGACG	0.771
GAGCACGCUGGAGCACAUCCUGUCCCAUGAGGGAGGAGGAGGAGCGUUGGCCUAACACUGGCUGUUUCGAUAGUGUGGGGGCUACAUGUGCCUGUAGGGGUCAGGCCUUG	0.743
CUGAUGAUUUUAUAAGAGGUUUCCCCUUUUGCUUAGUUCUCAUUCUCUCUUGCCUGCCGCCAUGUAAGACGUGCCUUUCUGUCAUGCUUGUGAGGCCUCCCCAGCCACGU	0.712
AGUAUUUGAAGUCUGUUCAACUUAGUUUUACGCUAGUGUUCUGACAUAUUUUAAUUGCAUAUAACUGUAUAAUAGUCCGUGUUGUUUUCUUGCAUUGACAUGUUUCCUUU	0.692
ACCCUCUGGCUGCCUAGAUCAGUAAAUAAAAUUGAUGUAAUAUAAUUUAUAAGUAACACUGUUGAAACCCUGAUCCCAGUGGAGGCUGUAACCCACCUGCCCCCGCACCA	0.451
UUCAGUAGCUUUAAAUUCUCAGGUCAGAACAUAACAUUUCUCAUUUGUUAAAAGCAGCAAGAAGCCUGGUAAAACUGUGACUUUUCCCCAAAUGUCAAUCUUUAUUAGAA	0.446
AUGAUUUGGGGGAGGCUUUGGGAGCAAAAUAAGGAAGAGGGCUGAGCUGAGCUUCGGUUCUCCAGAAUGUAAGAAAACAAAAUCUAAAACAAAAUCUGAACUCUCAAAAG	0.423
ACCUGGGCCAUAGUCAUUCUGCCUGCCCUGAAAGUCCCAGAUCAAGCCUGCCUCAAUCAGUAUUCAUAUUUAUAGCCAGGUACCUUCUCACCUGUGAGACCAAAUUGAGC	0.381
CCAUCAUCUCUGCCUUUGAGUGUGGGACUCCAGGCCAGCUCCUUUUCUGUGAAGCCCUUUGCCUGUAGAGCCAGCCUUGGUUGGACCUAUUGCCAGGAAUGUUUCAGCUG	0.65
GGGGGCAUGAACAAAAACCAGUGCCUCGUUGUGCACAGUCCUCUAAAAGUAGCAUUCUUAUCUGUUAGAAACAUAGAGUGAGCUUCAUCUGUAAUCCUUAAACUCGAUGU	0.591

Block 6
Target: CCNA2, cyclin fold, Cln2 fusion (human)
Method: yeast growth competition, sequencing
Medium: yeast
Notes: strong parent motif
Relative to: not given
Direction: higher = stronger binding
Parent: E2F1 docking peptide (human); PPVKRRLDLETDH; partner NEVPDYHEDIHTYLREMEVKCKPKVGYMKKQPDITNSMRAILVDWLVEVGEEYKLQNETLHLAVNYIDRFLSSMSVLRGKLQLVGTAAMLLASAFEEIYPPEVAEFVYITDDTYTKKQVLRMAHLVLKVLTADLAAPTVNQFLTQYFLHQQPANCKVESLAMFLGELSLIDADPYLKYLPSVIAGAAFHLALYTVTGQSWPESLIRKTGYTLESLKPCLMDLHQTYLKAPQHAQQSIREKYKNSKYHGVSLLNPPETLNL
Substitution	normalised enrichment score
R5T	0.197
T11V	4.53
D8C	4.43
T11M	4.2
E10C	4.14
E10M	3.62
R6F	1.88
K4C	4.14
H13I	4.83
P1Q	4.61
H13G	4.77
P2R	3.92
T11S	4.8
D12T	3.91
H13P	5.16
R6L	0.968
D12N	3.81
R5D	0.316
P2L	2.6
E10L	3.23
P2D	2.86
D8P	2.06
K4M	2.26
P1F	4.75
R5P	-1.8

For quick reference, copied from above (block 5):
Oligonucleotide	RBNS enrichment (R)
GUCUGGUACUAGAUUUGCUCCUGUCCCACCCCGCAGUCCCCUGAGGAGGGCGAUGUGCGCCCUCUUUCACUUUUUUUCUUCUAGGUCUCCAGGUCCCGGAGGGGAUUUGU	0.427
UGCGGGUGAUCCUCAAGGCCAUGCUGCUUUCUGAGUUGUUCUUGUUGCUUUGUUCAUAAUGUGGUUACAGUCAUAUUACACUGACCCUGAGGGUAUUAUGUAACCCUUCA	0.451
GUCAGACUGUUGCUACAUACAAUUGCCUUUGUAUCUUCGUAUGAAAUAAAAGGUCAUUUGUUCCUGUUGUGUUUAUUUUUCUUGGUUUUAUUGUUAGUUCCUGUUAGACG	0.771
GAGCACGCUGGAGCACAUCCUGUCCCAUGAGGGAGGAGGAGGAGCGUUGGCCUAACACUGGCUGUUUCGAUAGUGUGGGGGCUACAUGUGCCUGUAGGGGUCAGGCCUUG	0.743
CUGAUGAUUUUAUAAGAGGUUUCCCCUUUUGCUUAGUUCUCAUUCUCUCUUGCCUGCCGCCAUGUAAGACGUGCCUUUCUGUCAUGCUUGUGAGGCCUCCCCAGCCACGU	0.712
AGUAUUUGAAGUCUGUUCAACUUAGUUUUACGCUAGUGUUCUGACAUAUUUUAAUUGCAUAUAACUGUAUAAUAGUCCGUGUUGUUUUCUUGCAUUGACAUGUUUCCUUU	0.692
ACCCUCUGGCUGCCUAGAUCAGUAAAUAAAAUUGAUGUAAUAUAAUUUAUAAGUAACACUGUUGAAACCCUGAUCCCAGUGGAGGCUGUAACCCACCUGCCCCCGCACCA	0.451
UUCAGUAGCUUUAAAUUCUCAGGUCAGAACAUAACAUUUCUCAUUUGUUAAAAGCAGCAAGAAGCCUGGUAAAACUGUGACUUUUCCCCAAAUGUCAAUCUUUAUUAGAA	0.446
AUGAUUUGGGGGAGGCUUUGGGAGCAAAAUAAGGAAGAGGGCUGAGCUGAGCUUCGGUUCUCCAGAAUGUAAGAAAACAAAAUCUAAAACAAAAUCUGAACUCUCAAAAG	0.423
ACCUGGGCCAUAGUCAUUCUGCCUGCCCUGAAAGUCCCAGAUCAAGCCUGCCUCAAUCAGUAUUCAUAUUUAUAGCCAGGUACCUUCUCACCUGUGAGACCAAAUUGAGC	0.381
CCAUCAUCUCUGCCUUUGAGUGUGGGACUCCAGGCCAGCUCCUUUUCUGUGAAGCCCUUUGCCUGUAGAGCCAGCCUUGGUUGGACCUAUUGCCAGGAAUGUUUCAGCUG	0.65
GGGGGCAUGAACAAAAACCAGUGCCUCGUUGUGCACAGUCCUCUAAAAGUAGCAUUCUUAUCUGUUAGAAACAUAGAGUGAGCUUCAUCUGUAAUCCUUAAACUCGAUGU	0.591
